Assay results gathered from unrelated publications.
Compare with care: the assays were run in different laboratories.
SGK1 S422D: Serine/threonine-protein kinase Sgk1 (SGK1, Homo sapiens, UniProt O00141, S422D)
SGK1: Serine/threonine-protein kinase Sgk1 (SGK1, Homo sapiens, UniProt O00141)

| SMILES | target | assay | system | setting | how to read | measurement | value |
| --- | --- | --- | --- | --- | --- | --- | --- |
| Cc1cccc(-c2ccc3nc(NC(=O)C4CCCCC4)nn3c2)c1 | SGK1 S422D | enzyme activity, Dundee kinase panel | – | 10 µM | – | remaining activity | 105% |
| Cc1ccc(C(=O)Nc2ccc(CN3CCN(C)CC3)c(C(F)(F)F)c2)cc1C#Cc1cnc2cccnn12 | SGK1 | target engagement, NanoBRET | human cells | – | – | upper asymptote | 33.9 |
| C=CC(=O)N1CCc2ccc(-n3c(=O)ccc4cnc5ccc(-c6cnn(C)c6)cc5c43)cc21 | SGK1 | KINOMEscan | – | 1 µM | relative to: DMSO control | remaining binding | 100% |
| Cc1[nH]nc2c1N=C(c1ccccc1Cl)c1cnc(N3CCOCC3)cc1N2 | SGK1 | enzyme activity, inhibitor | – | 0.5 µM | – | inhibition | 18.1% |
| Nc1nc(Nc2ccccc2)sc1C(=O)c1ccccc1 | SGK1 | enzyme activity, inhibitor | – | 10 µM | – | remaining activity | 80% |
| CN1CCN(Cc2ccc(-c3ccc(CO[C@H]4CCC[C@@H]4NC(=O)c4cc(-c5cnn(C)c5)cnc4N)cc3)cc2)CC1 | SGK1 | enzyme activity, inhibitor | – | 0.1 µM | – | inhibition | 2% |
| NC(=O)[C@@H](O)C[C@H]1CCc2sc3ncnc(O[C@H]4CC[C@H](N5CCOCC5)CC4)c3c21 | SGK1 | enzyme activity, inhibitor | – | 10 µM | – | inhibition | 6% |
| C=CC(=O)N1Cc2nc(-c3cc(-c4cc(Cl)cnc4Cl)c(F)cc3F)n(-c3ccncn3)c2C1 | SGK1 | cell-free assay, inhibitor | – | 1 µM | – | inhibition | 4.8% |
| C=CC(=O)Nc1cccc(-c2cnc3[nH]cc(C(=O)NC(C)(C)C)c3n2)c1 | SGK1 | enzyme activity, inhibitor | – | 0.1 µM | – | inhibition | 5% |
| O=C(Cc1ccc(OCc2ccccc2)cc1)NC1(C(=O)O)CCN(C(=O)c2ccc(-c3cccc(Cl)c3)cc2)CC1 | SGK1 | enzyme activity, inhibitor | – | 10 µM | – | activity vs control | 114% |
| O=C(O)c1ccc(-c2n[nH]c(=O)o2)cc1 | SGK1 S422D | – | – | 10 µM | – | inhibition | 49.1% |
| COc1cc(Nc2nc(C)cc(-c3cnn4nc(OC)ccc34)n2)cc(C(F)(F)F)c1 | SGK1 | binding, competition with immobilised ligand | – | 1 µM | – | remaining binding | 94% |
| COc1cc(-n2cc3cc(F)cc(C(N)=O)c3n2)cc(Cl)c1C1CC(O)(CCO)Cc2ccccc21 (centres unmarked) | SGK1 | enzyme activity, inhibitor | – | 10 µM | – | inhibition | 1.81% |
| CCN1CCN(Cc2ccc(C(=O)Nc3ccc(C)c(NCc4cnc5[nH]ccc5c4OC)c3)cc2C(F)(F)F)CC1 | SGK1 | binding, competition with immobilised ligand | – | 1 µM | – | remaining binding | 100% |

Excerpt of the above:
| SMILES | target | assay | system | setting | how to read | measurement | value |
| --- | --- | --- | --- | --- | --- | --- | --- |
| Nc1nc(Nc2ccccc2)sc1C(=O)c1ccccc1 | SGK1 | enzyme activity, inhibitor | – | 10 µM | – | remaining activity | 80% |
| O=C(O)c1ccc(-c2n[nH]c(=O)o2)cc1 | SGK1 S422D | – | – | 10 µM | – | inhibition | 49.1% |
